{"data": "Assay results from different studies", "note": "A part holds a random share of what one study measured."}
{"data": "Block 1", "target": "PABPC1L2, full length, GST fusion (mouse, UniProt A0ABA7IW68)", "method": "RNAcompete", "molecule type": "RNA", "matrix": "in vitro", "concentration": "20 nM", "notes": "7-mer, probes averaged, single round", "relative to": "mean of 7-mers", "direction": "higher = stronger binding", "Construct (chain)": "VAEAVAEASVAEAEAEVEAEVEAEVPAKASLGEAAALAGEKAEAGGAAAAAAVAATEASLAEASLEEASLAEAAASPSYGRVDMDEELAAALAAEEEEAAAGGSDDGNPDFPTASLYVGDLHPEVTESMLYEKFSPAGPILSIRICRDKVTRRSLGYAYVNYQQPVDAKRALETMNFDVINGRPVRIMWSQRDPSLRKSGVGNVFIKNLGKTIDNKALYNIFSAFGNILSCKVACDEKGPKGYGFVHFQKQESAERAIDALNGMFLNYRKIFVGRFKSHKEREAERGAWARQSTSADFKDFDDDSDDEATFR"}
{"Sequence": "GCUAUAU", "7-mer Z-score": -0.0971}
{"Sequence": "GCUGUUG", "7-mer Z-score": -0.374}
{"Sequence": "AGCGGGC", "7-mer Z-score": 0.0515}
{"Sequence": "UGGCACC", "7-mer Z-score": -0.0953}
{"Sequence": "CGAUCAC", "7-mer Z-score": -0.126}
{"Sequence": "AGGUGAU", "7-mer Z-score": 0.0315}
{"Sequence": "UCCGUGU", "7-mer Z-score": -0.396}
{"Sequence": "GCUCCGG", "7-mer Z-score": -0.222}
{"Sequence": "CAAUACC", "7-mer Z-score": -0.132}
{"Sequence": "GGCGCUG", "7-mer Z-score": 0.0189}
{"Sequence": "UUAAGGC", "7-mer Z-score": 0.108}
{"Sequence": "UGUGAGG", "7-mer Z-score": -0.166}
{"data": "Block 2", "target": "Histone acetyltransferase KAT6A, both winged helices, GST fusion (KAT6A, Homo sapiens, UniProt Q92794, residues 1-181)", "method": "protein binding microarray", "molecule type": "double-stranded DNA, one strand shown", "matrix": "in vitro", "concentration": "not given", "notes": "8-mer, flanks averaged, mean of 2 arrays, mostly near background", "relative to": "not given", "direction": "higher = stronger binding", "Construct (chain)": "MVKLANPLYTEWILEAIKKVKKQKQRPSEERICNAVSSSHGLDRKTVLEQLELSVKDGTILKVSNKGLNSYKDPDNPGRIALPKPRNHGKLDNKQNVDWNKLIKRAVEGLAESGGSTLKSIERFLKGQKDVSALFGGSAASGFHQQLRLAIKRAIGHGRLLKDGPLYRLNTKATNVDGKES"}
{"Sequence": "AACATATA", "E-score": -0.107}
{"Sequence": "CTACTTTA", "E-score": -0.0878}
{"Sequence": "CGGCCCTC", "E-score": 0.13}
{"Sequence": "CGTTTACC", "E-score": 0.116}
{"Sequence": "ACTGAAGT", "E-score": -0.147}
{"Sequence": "CACACAAG", "E-score": -0.171}
{"Sequence": "ATGGTATA", "E-score": -0.151}
{"Sequence": "CGCAATGA", "E-score": 0.0258}
{"Sequence": "ACTCTGGC", "E-score": -0.128}
{"Sequence": "CCGTAAGC", "E-score": 0.248}
{"Sequence": "AACCGTTA", "E-score": 0.0913}
{"data": "Block 3", "target": "Protein max, full length (MAX, Homo sapiens, UniProt P61244-2, residues 1-151)", "method": "protein-binding microarray", "molecule type": "double-stranded DNA, one strand shown", "matrix": "in vitro", "concentration": "not given", "notes": "k-mer, scored over probes, only values ≥0.25", "direction": "higher = stronger binding"}
{"Sequence": "AGCACACA", "E-score": 0.278}
{"Sequence": "CCGTGCTA", "E-score": 0.265}
{"Sequence": "AAAGCACG", "E-score": 0.355}
{"Sequence": "GCACGTGC", "E-score": 0.496}
{"Sequence": "AATCACGC", "E-score": 0.417}
{"Sequence": "AATCGTGC", "E-score": 0.251}
{"Sequence": "AACCATGC", "E-score": 0.435}
{"Sequence": "GCACGAGC", "E-score": 0.339}
{"Sequence": "ACCCACGT", "E-score": 0.439}
{"data": "Further values, each from its own experiment"}
{"Substance": "PhoQ, residues 284 288 289 292 302 303 ALASRC", "target": "PhoP, residues 12 14 15 18 19 LHSVQ (Escherichia coli, UniProt P23836)", "test": "Sort-seq, item: YFP reporter", "system": "E. coli", "conditions": "PhoQ-PhoP variant library, with: 10 µM Mg2+", "scale": "relative to: high Mg2+ state, higher = stronger signaling", "quantity": "fold induction", "result": 0.937}
{"note": "Repeated from above (block 3):"}
{"Sequence": "CCGTGCTA", "E-score": 0.265}
{"Sequence": "AAAGCACG", "E-score": 0.355}
{"Sequence": "GCACGTGC", "E-score": 0.496}
{"Sequence": "AATCACGC", "E-score": 0.417}
{"Sequence": "AATCGTGC", "E-score": 0.251}
